Published values of several laboratories.
A part holds a random share of what one study measured.

Series 1 — SMILES: C=CCc1ccc(O)c(-c2ccc(O)c(CC=C)c2)c1; read-out: chloride current; measurement: normalized current
ANO1 del476-501: Anoctamin-1 (ANO1, Homo sapiens, UniProt Q5XXA6, del476-501)
Sequence of UniProt Q5XXA6 (whole entry, unmodified, looked up): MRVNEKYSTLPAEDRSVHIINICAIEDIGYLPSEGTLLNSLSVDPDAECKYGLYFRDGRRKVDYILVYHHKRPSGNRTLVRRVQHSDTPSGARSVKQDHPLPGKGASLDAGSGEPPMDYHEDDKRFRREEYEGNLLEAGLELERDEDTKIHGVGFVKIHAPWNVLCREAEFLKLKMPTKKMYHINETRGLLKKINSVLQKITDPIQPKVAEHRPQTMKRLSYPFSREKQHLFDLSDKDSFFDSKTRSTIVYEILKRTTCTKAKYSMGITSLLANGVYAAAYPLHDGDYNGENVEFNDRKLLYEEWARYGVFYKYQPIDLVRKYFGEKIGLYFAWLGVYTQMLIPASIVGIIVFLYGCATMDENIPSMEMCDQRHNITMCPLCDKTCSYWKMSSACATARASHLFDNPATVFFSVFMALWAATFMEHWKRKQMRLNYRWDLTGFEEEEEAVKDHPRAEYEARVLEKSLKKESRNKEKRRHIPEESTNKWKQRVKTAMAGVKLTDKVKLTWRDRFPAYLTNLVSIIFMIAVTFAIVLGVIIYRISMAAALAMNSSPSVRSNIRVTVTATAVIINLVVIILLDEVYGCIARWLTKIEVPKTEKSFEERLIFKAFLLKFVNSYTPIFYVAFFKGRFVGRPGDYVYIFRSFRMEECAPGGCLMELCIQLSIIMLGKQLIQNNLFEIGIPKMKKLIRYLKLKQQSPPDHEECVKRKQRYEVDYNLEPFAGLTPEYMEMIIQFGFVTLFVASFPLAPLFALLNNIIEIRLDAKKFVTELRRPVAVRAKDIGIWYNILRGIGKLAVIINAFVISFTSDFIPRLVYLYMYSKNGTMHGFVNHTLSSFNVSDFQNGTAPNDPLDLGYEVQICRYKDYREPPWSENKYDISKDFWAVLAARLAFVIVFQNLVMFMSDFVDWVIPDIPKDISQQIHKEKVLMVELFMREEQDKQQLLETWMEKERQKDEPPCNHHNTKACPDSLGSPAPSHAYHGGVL
Anoctamin-1 (ANO1, Homo sapiens, UniProt Q5XXA6, del476-501/R541A); inside-out patch clamp; 10 µM, membrane voltage 80 mV: 0.56
ANO1 del476-501; whole-cell voltage clamp; 30 µM, wild type, concentration-response at 100 mV, added: 4 µM Ca2+: 0.0713
Anoctamin-1 (ANO1, Homo sapiens, UniProt Q5XXA6, del476-501/F628A); whole-cell voltage clamp; 10 µM, I-V at -100 mV, added: 4 µM Ca2+: -0.684
ANO1 del476-501; whole-cell voltage clamp; 10 µM, wild type, I-V at 100 mV, added: 4 µM Ca2+: 0.316
ANO1 del476-501; whole-cell voltage clamp; 30 µM, wild type, I-V at 80 mV, added: 4 µM Ca2+: 0.052

Series 2 — species: human, idiopathic pulmonary fibrosis; measurement: AE leading to discontinuation
SMILES: CC(C)n1cnc(-c2ccc(F)cc2)c1-c1ncc(C(=O)Nc2ccc(N3CCN(C)CC3)cc2)[nH]1
item: liver injury; 30 mg twice daily, trial: 5.6%
30 mg once daily, trial, without standard of care: 0%
30 mg twice daily, trial, with standard of care: 25%
30 mg once daily, trial, with standard of care: 9.1%

Series 3 — read-out: binding; technique: radioligand binding; tested at: 10 µM; measurement: inhibition
Target: Histamine H1 receptor (HRH1, Homo sapiens, UniProt P35367)
Sequence of UniProt P35367 (whole entry, looked up): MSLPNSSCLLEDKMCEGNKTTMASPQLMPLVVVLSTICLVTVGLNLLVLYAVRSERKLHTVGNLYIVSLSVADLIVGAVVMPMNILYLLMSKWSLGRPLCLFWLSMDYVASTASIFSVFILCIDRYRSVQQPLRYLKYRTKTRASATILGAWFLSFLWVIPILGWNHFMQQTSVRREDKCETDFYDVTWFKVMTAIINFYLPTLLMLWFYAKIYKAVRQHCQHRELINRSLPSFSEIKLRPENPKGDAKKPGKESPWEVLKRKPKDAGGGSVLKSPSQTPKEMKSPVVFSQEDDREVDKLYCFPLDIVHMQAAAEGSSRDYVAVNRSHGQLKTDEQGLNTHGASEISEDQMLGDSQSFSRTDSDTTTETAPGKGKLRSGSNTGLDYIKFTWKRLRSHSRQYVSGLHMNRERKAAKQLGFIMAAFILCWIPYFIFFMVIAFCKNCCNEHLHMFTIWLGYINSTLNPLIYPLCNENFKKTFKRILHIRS
CNC(=O)c1ccc(Nc2ncc(C(F)(F)F)c(NCc3nccnc3N(C)S(C)(=O)=O)n2)cc1: -3.38%
CN(C)C(=O)Cn1cc(-c2nc([C@@](C)(c3ccc(-c4cnc(N)nc4)cc3)C3CC3)no2)cn1: 7.66%
COCc1nc2cnc3cc(-c4c(C)noc4C)c(OC[C@H]4CCNC4)cc3c2n1[C@H](C)c1ccccc1: 0.33%
Cc1c(N2CCCC2)nc2ccc(Br)cc2c1C(=O)NC[C@H](CCC(=O)O)c1ccccc1Cl: 4.61%
O=C(NC[C@@H]1[C@H]2CN(C(=O)OCc3cc(C(F)(F)F)cc(C(F)(F)F)c3)C[C@@H]12)c1ccc2[nH]nnc2c1: 12.8%
CC1=C(C#N)C(c2ccc3c(c2)c(NC(=O)c2ccccc2C)nn3C)C(C#N)=C(C)N1: 0.94%
Nc1c(C(=O)NCc2ccc(C(=O)NCCCC3CCCCC3)cc2)cnn1-c1ccccc1: 14.7%
O=C([C@H]1C[C@H](O)CN1c1ccc(Cl)cc1)N1CC2COCC(C1)N2Cc1ccc(Cl)cc1: 14.3%
Cc1nc(N2CC[C@@H](O)C2)ncc1-c1cc(C(F)(F)F)cc2[nH]ncc12: 0.239%
CN1C(=O)[C@@H](N2CCc3cn(Cc4ccccc4)nc3C2=O)COc2ccccc21: 20.5%
C[C@H](NC(=O)c1cnc2n1[C@](C)(Cc1ccc(C#N)cc1)C(=O)N2c1cc(Cl)c(F)c(Cl)c1)C(=O)NC1(c2ccccn2)CC1: 3.2%

Series 4 — action: antagonist; measurement: IC50
Target: Beta-1 adrenergic receptor (ADRB1, Homo sapiens, UniProt P08588)
Sequence of UniProt P08588 (whole entry, looked up): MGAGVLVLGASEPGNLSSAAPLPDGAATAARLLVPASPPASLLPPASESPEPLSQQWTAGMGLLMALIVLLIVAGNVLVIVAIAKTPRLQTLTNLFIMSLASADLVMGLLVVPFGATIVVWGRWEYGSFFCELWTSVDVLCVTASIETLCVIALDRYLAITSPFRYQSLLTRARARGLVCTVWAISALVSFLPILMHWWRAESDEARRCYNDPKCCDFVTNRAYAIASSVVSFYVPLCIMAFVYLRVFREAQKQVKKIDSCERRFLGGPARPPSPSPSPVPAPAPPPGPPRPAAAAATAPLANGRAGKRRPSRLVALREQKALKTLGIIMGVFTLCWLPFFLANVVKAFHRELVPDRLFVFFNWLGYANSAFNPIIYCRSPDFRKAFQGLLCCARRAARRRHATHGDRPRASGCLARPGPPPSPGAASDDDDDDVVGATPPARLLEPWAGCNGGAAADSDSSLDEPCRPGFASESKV
CC(=O)Oc1ccc2c(c1)Oc1cc(OC(C)=O)ccc1C21OC(=O)c2cc(C(=O)O)ccc21: ≥ 100 µM
O=C(Nc1ccc([C@@H](O)[C@H]2COCC(=O)N2Cc2ncc[nH]2)cc1)C1CC1: ≥ 100 µM
Cn1c(=O)c2c(nc(N3CCNCC3)n2Cc2ccccc2)n(C)c1=O: ≥ 100 µM
N#Cc1cc2c(nc1N1CC(n3c(C4CC4)nc4ccccc43)C1)CCOC2: ≥ 100 µM
Cc1noc(C)c1-c1cc2cc(CNC3CCOCC3)oc2c(NC2CCN(C)CC2)n1: ≥ 100 µM
C[C@@H]([C@@H](O)c1ccc(O)cc1)N1CCC(O)(c2ccccc2)CC1: ≥ 100 µM
COc1ccccc1C(=O)Nc1ccc(C(O)[C@H]2COCC(=O)N2)cc1 (stereo partly drawn): ≥ 100 µM
Cc1cc(C)n(-c2cccc(NC(=O)Cc3noc4ccccc34)c2)n1: ≥ 100 µM
CN1Cc2ccc(N3CCOCC3)nc2C(C)(C(=O)NCCCn2ccnc2)C1 (stereo not drawn): ≥ 100 µM
c1ccc2c(c1)OCC(CNCc1cnc(N3CCOCC3)nc1)O2 (stereo not drawn): ≥ 100 µM

A few entries again (series 4):
CC(=O)Oc1ccc2c(c1)Oc1cc(OC(C)=O)ccc1C21OC(=O)c2cc(C(=O)O)ccc21: ≥ 100 µM
O=C(Nc1ccc([C@@H](O)[C@H]2COCC(=O)N2Cc2ncc[nH]2)cc1)C1CC1: ≥ 100 µM
Cn1c(=O)c2c(nc(N3CCNCC3)n2Cc2ccccc2)n(C)c1=O: ≥ 100 µM
N#Cc1cc2c(nc1N1CC(n3c(C4CC4)nc4ccccc43)C1)CCOC2: ≥ 100 µM
Cc1noc(C)c1-c1cc2cc(CNC3CCOCC3)oc2c(NC2CCN(C)CC2)n1: ≥ 100 µM
